Experimental data collected from several papers.
Each line is one published result; not all experiments were run side by side. Values joined by “and” are separate records of one study, mostly repeats; a detail may differ. ± gives the spread as reported.
UniProt P06276, sequence (whole entry, looked up): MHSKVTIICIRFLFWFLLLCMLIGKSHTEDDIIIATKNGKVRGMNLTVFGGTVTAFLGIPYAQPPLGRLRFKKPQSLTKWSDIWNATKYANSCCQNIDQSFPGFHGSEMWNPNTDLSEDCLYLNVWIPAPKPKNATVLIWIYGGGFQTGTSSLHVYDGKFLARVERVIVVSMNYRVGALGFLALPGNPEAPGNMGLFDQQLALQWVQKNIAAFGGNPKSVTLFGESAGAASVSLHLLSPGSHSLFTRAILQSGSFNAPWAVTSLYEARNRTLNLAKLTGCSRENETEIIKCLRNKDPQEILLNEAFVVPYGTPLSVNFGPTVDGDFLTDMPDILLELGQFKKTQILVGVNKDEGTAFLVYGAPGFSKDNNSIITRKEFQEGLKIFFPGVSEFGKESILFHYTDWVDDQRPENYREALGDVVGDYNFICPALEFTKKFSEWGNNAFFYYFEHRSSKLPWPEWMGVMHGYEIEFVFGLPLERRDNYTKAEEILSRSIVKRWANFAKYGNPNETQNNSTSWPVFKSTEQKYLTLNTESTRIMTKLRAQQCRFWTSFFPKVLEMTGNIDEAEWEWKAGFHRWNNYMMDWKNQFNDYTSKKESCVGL

SMILES	tested on	test	system	conditions	scale	measurement	result
[O-][S+]1CCc2nc(N3CCC(c4ncc(Cl)cn4)CC3)nc(NC3(CO)CCC3)c21 (stereo not drawn)		measured: mean	idiopathic pulmonary fibrosis patients, blood	18 mg twice daily, at last treatment		C-reactive protein, high-sensitivity	6 mg/L
O=[N+]([O-])c1cc2c3c(ccc2c2ccccc12)[C@H](O)[C@@H](O)C=C3		measured: others mammary tumours	female Sprague-Dawley rats	intramammary, 12.3 µmol per rat, up to 32 weeks		tumours per rat	0.08 ± 0.28
O=C(Cc1ccc(Cl)c(Cl)c1)N1CCCCC1CN1CCCC1 (stereo not drawn)	Plasmodium falciparum		3D7			IC50	12.6 µM
Clc1cc(Cl)c(-c2cc(Cl)c(Cl)c(Cl)c2Cl)cc1Cl			fresh water	12 (unit not given), 20 °C, S30-2 sampler, 30 µm		log K(PDMS-water)	6.67 ± 0.08
COc1ccc2c(c1)CN(C(=O)CCN1CCC(Cc3ccccc3)CC1)CCS2	Cholinesterase (BCHE, Homo sapiens, UniProt P06276)	inhibitor				IC50	8.62 ± 0.88 µM
CC1=C(C)C(=O)C(CCCCC#CCCCC#CCO)=C(C)C1=O	Plasmodium falciparum		3D7			IC50	7.94 µM
C[C@@H](NC(=O)N1C(=O)[C@H](Cc2ccnc(N)c2)[C@H]1C(=O)O)C1CCCCC1			healthy adult Chinese volunteers	continuous intravenous infusion, 1.5 mg/kg/h, 5-day infusion, CTCAE 5.0 grading		incidence of abnormal liver function	0%
CN[C@@H](C)C(=O)N[C@H]1CN(S(=O)(=O)c2cccc(S(=O)(=O)N3CC[C@H]4CC[C@@H](C(=O)NC(c5ccccc5)c5ccccc5)N4C(=O)[C@@H](NC(=O)[C@H](C)NC)C3)c2)CC[C@H]2CC[C@@H](C(=O)NC(c3ccccc3)c3ccccc3)N2C1=O			patients with advanced solid tumours	20 mg, phase I monotherapy		treatment-related ALT elevation incidence	0%
Clc1ccc(-c2ccc(Cl)c(Cl)c2Cl)cc1Cl			PDMS-water partitioning	PCB compilation	baseline: maximum over minimum K	literature range factor	1.1
C[C@@H]1NC(=O)[C@H](CCCCNC(=O)CO/N=C/C(=O)NCCCC[C@@H]2NC(=O)[C@@H](Cc3ccccc3)NC(=O)[C@H](CC(=O)O)NC(=O)CNC(=O)[C@H](CCCNC(=N)N)NC2=O)NC(=O)CNC(=O)[C@@H]2CCCN2C(=O)[C@H](CCCCNC(=O)CO/N=C/C(=O)NCCCC[C@@H]2NC(=O)[C@@H](Cc3ccccc3)NC(=O)[C@H](CC(=O)O)NC(=O)CNC(=O)[C@H](CCCNC(=N)N)NC2=O)NC(=O)[C@H](CCCCNC(=O)[C@H](CCCCN)NC(=O)[C@H](Cc2ccccc2)NC(=O)CNC(=O)CN2CCCNCCNCCCNCC2)NC(=O)[C@H](CCCCNC(=O)CO/N=C/C(=O)NCCCC[C@@H]2NC(=O)[C@@H](Cc3ccccc3)NC(=O)[C@H](CC(=O)O)NC(=O)CNC(=O)[C@H](CCCNC(=N)N)NC2=O)NC(=O)CNC(=O)[C@@H]2CCCN2C(=O)[C@H](CCCCNC(=O)CO/N=C/C(=O)NCCCC[C@@H]2NC(=O)[C@@H](Cc3ccccc3)NC(=O)[C@H](CC(=O)O)NC(=O)CNC(=O)[C@H](CCCNC(=N)N)NC2=O)NC1=O [copper-64 labelled]			normal mice, kidney	intravenous, 0.74 MBq, 24 h post-injection		tissue uptake	14.2 ± 1.32 %ID/g
Cn1cncc1-c1c(F)cncc1NC(=O)c1c(N)nn2cc(F)cnc12			human patients	oral, 220 mg once daily		grade ≥3 hyperkalaemia incidence	0%
O=C(Nc1ccccc1)C1CCN(C(=O)Oc2cccnc2)CC1		measured: Headache	healthy female human	concentration not given, all doses pooled		adverse event incidence	29%
COc1ccc2nc3cc(Cl)ccc3c(Nc3cc(CN4CCCC4)c(O)c(CN4CCCC4)c3)c2n1			mouse, blood	intraperitoneal, 14 mg/kg		neutrophils	15.6%
COc1ccc(-c2c(-c3ccc(C#N)c(F)c3)nc(N3CCC(N)CC3)n(C)c2=O)cc1F		measured: Cholecystitis	human patients	oral, dose not given, dose escalation, NG		serious adverse event incidence	2%
CSCC[C@@H]1NC(=O)[C@H](Cc2c[nH]c3ccccc23)NC(=O)[C@@H](NC(=O)CCNC(=O)[C@H](CCC(N)=O)NC(=O)[C@@H]2CCCN2C(=O)[C@@H]2CCCN2C(=O)[C@H](CCCNC(=N)N)NC(=O)[C@H](CCCNC(=N)N)NC(=O)[C@H](CCCNC(=N)N)NC(=O)[C@H](CCC(N)=O)NC(=O)[C@H](CCCNC(=N)N)NC(=O)[C@H](CCCNC(=N)N)NC(=O)[C@H](CCCCN)NC(=O)[C@H](CCCCN)NC(=O)[C@H](CCCNC(=N)N)NC(=O)CN)CSSC[C@@H](C(=O)O)NC(=O)[C@H]([C@@H](C)O)NC(=O)CNC(=O)[C@H](CC(C)C)NC(=O)[C@H](Cc2c[nH]cn2)NC(=O)[C@H](CCCNC(=N)N)NC(=O)[C@@H]2CCCN2C(=O)[C@H](CO)NC1=O		competitive EIA	human, plasma	70 mg, median and quartile range		elimination rate constant	0.5 ± 0.17 h⁻¹
COc1cccc(Oc2ccccc2NC(=O)CNC(=O)c2cccc3ccccc23)c1			esterase-deficient SCID mice, male	oral, 15 mg/kg/day, 14 days, toxicity study		serum sodium	156 mmol/L and 160 mmol/L
Clc1ccc(-c2ccc(Cl)cc2Cl)cc1			fresh water	20 °C, SSP sampler, 100 µm		log K(PDMS-water)	5.16 ± 0.03
CC1=C(O)C(=O)C=C2C1=CC=C1[C@@]2(C)CC[C@@]2(C)[C@@H]3C[C@](C)(C(=O)O)CC[C@]3(C)CC[C@]12C			Sprague-Dawley rat pups, multiple-hit infantile spasms model	i.p., 2 mg/kg, PN3 to PN5, CELA-2 arm		body weight gain rate	0.74 g/day
Cn1ncc(-c2nc(N[C@H]3CC[C@H](N)CC3)ncc2Cl)c1CC1CC1		measured: nausea any grade	human patients phase I	dose not given		adverse event incidence	67%
CC(C)CC(=O)OC[C@H]1O[C@@](C#N)(c2ccc3c(N)ncnn23)[C@H](O)[C@@H]1O			Sprague-Dawley rat, both sexes, urine and faeces	80 mg/kg, time not given	baseline: dose	recovery in urine and faeces	0.0657%
CO[C@H]1C[C@@H]2CC[C@@H](C)[C@@](O)(O2)C(=O)C(=O)N2CCCC[C@H]2C(=O)O[C@H]([C@H](C)C[C@@H]2CC[C@@H](OC(=O)NCCOCCOCCOCCOCCOCCOCCOCCOCCC(=O)N3CCc4cc(Cn5nc(-c6ccc7oc(N)nc7c6)c6c(N)ncnc65)ccc4C3)[C@H](OC)C2)C[C@@H](O)[C@H](C)/C=C(\C)[C@@H](O)[C@@H](OC)C(=O)[C@H](C)C[C@H](C)/C=C/C=C/C=C/1C		phase 1 dose escalation	advanced solid tumour patients	intravenous, 12 mg weekly, any grade		any SAE incidence	16.7%

SMILES	tested on	test	system	conditions	scale	measurement	result
C[C@]1(CO)Cc2ncn(-c3ccc(C#N)c(Cl)c3)c2C(=O)O1			human	concentration not given, European multiple ascending dose		disorders, nervous system, drug related	6.7%
Clc1ccc(Cl)c(-c2cc(Cl)ccc2Cl)c1			Sprague Dawley rat, spleen	intraperitoneal, 100 mg/kg, 3 weeks	baseline: vehicle	relative organ weight	no effect
CC1(C)[C@H](C(=O)OCc2cccc(Oc3ccccc3)c2)[C@@H]1C=C(Cl)Cl		measured: CYP2C9	human, age 1 year, recombinant human CYP2C9	0.1 µM		enzyme contribution to clearance	2.32%
N.N.[Cl][Pt][Cl]			nude mice, serum	dose not given, 10 days		γ-GTP	< 6 U/L
O=C(Nc1ccccc1)C1CCN(C(=O)Oc2cccnc2)CC1		Bond-Lader VAS	healthy women	oral, 20 mg	baseline: pre-dose baseline, direction not given	change in alertness score	3.9
CC/C(=C(\c1ccccc1)c1ccc(OCCN(C)C)cc1)c1ccccc1			CD-1 mouse, male, plasma	intraperitoneal, 10 mg/kg		Tmax	2 h
Clc1cc(-c2cc(Cl)c(Cl)c(Cl)c2)cc(Cl)c1Cl			PDMS-water partitioning	PCB compilation	baseline: maximum over minimum K	literature range factor	2
CCOc1cc(Oc2ccc(C(F)(F)F)cc2Cl)ccc1[N+](=O)[O-]			rat, male	500 mg/kg, 4 days		body weight gain	29.7%
O=S(=O)(Nc1ccccc1)c1ccc(NC(=S)Nc2ccccc2)cc1			male mice, thymus	oral, 5 mg/kg daily 14 days	baseline: body weight	relative organ weight	0.27%
CC(C)C[C@@H]1NC(=O)CNC(=O)[C@H](CC(N)=O)NC(=O)[C@H](CCCNC(=N)N)NC(=O)[C@H]([C@@H](C)O)NC(=O)[C@@H]2CSSC[C@@H]3NC(=O)[C@H]([C@@H](C)O)NC(=O)CNC(=O)CNC(=O)[C@H](C(C)C)NC(=O)[C@@H]4CSSC[C@H](NC(=O)[C@H]([C@@H](C)O)NC(=O)[C@H](CSSC[C@H](NC(=O)[C@H](CCCCN)NC(=O)[C@@H]5CCCN5C1=O)C(=O)NCC(=O)N[C@@H](CCC(=O)O)C(=O)N[C@@H]([C@@H](C)O)C(=O)N4)NC(=O)CNC(=O)[C@@H]1CCCN1C(=O)[C@H]([C@@H](C)O)NC(=O)[C@H](CC(N)=O)NC3=O)C(=O)N[C@@H](CO)C(=O)N[C@@H](Cc1c[nH]c3ccccc13)C(=O)N1CCC[C@H]1C(=O)N[C@@H](C(C)C)C(=O)N2		HPLC	ammonium bicarbonate	180 µM, 14 days, pH 9.0, 25 °C, deamidation stability		remaining peptide	81.1 ± 6.8%
COc1cc2c(Oc3ccc4[nH]c(C)cc4c3F)ccnc2cc1OCC1(N)CC1			paediatric recurrent refractory sarcoma	12 mg		Headache incidence	27.3%
CN1CC[C@@H](c2c(O)cc(O)c3c(=O)cc(-c4ccc(C(F)(F)F)cc4Cl)oc23)[C@@H]1CO		measured: Epistaxis	B-cell malignancies or AML	oral, 100 mg, continuous dosing		patients with adverse event	0%
O[C@H]1CCCN[C@@H]1CCCn1cnc2c(Cl)c(Cl)ccc21			human, UGT2B7 ND+DD phenotype, plasma	oral, 150 mg, single dose		Cmax	235 ng/mL
COc1ncccc1-c1cnn2ccc(N3CCN(C(=O)OC(C)C)CC3)nc12			rat, thermal hyperalgesia model, plasma	oral, 3 mg/kg, 180 min		drug concentration	290 nM
NC(=O)[C@H]1CCN(c2ncnc(N)c2F)C[C@@H]1N1CCC[C@@H](Nc2cc(Cl)cc(C(F)(F)F)c2)C1=O			B-cell malignancy patients	oral, 328 mg twice daily, dose		grade ≥3 leukocytosis	0%
CN1CCN(c2ccc(Nc3nccc(-c4ccc(Cl)cc4)n3)cc2C(F)(F)F)CC1			zebrafish embryos	25 µM, 5 d		toxicity	0%
CCN(CCO)CCCC(C)Nc1ccnc2cc(Cl)ccc12 (stereo not drawn)			newly diagnosed glioblastoma patients	oral, 800 mg/dose, grade 2, together with: radiotherapy and temozolomide		white cell decrease patients	33%
Cc1ccccc1C(=O)NN=Cc1ccc(O)c(Br)c1			C3H/HeN mouse IN model, plasma	intraperitoneal, 1.6 mg/kg		AUC(0-t)	326 ng·h/mL
O=C1Nc2cc3[nH]nc(-c4ccncc4)c3cc2CN1Cc1ccccc1		CTCAE v4.03	advanced solid tumour patients	intravenous, 0.45 mg/kg, schedules 1/2		patients with dyspnoea	0%
CCc1ccc(CC/C=C/c2ccc3c(c2)C(=O)CC3)cc1			Sprague-Dawley rat, female, serum	oral, 450 mg/kg/day, 14 days		chloride	105 mM
COc1nnc2ccc(N3CCC(c4ccc(OCCN5CCN(C)C(=O)[C@H]5C)cc4)CC3)nn12			relapsed/refractory solid tumour or lymphoma patients	oral, dose not given		any TEAE	94.1%
